Experimental data gathered from unrelated publications.
Protocols differ between the studies behind these lines. “And” joins repeats or separate records; there may be more than shown. ± gives the spread as reported.
HTR2B: 5-hydroxytryptamine receptor 2B (HTR2B, Homo sapiens, UniProt P41595)
UniProt P41595, sequence (whole entry, looked up): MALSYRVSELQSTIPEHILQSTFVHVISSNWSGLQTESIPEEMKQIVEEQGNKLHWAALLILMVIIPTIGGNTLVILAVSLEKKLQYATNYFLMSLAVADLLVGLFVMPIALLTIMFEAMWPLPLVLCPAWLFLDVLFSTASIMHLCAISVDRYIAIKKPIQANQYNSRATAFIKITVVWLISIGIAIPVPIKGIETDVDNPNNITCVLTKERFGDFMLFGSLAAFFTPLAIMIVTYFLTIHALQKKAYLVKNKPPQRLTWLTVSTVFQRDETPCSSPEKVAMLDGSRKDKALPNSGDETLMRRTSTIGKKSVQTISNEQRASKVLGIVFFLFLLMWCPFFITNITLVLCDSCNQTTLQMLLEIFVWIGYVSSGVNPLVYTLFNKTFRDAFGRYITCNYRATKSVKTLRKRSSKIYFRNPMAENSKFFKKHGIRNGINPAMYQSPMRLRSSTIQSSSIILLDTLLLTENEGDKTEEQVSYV
TOP2A: DNA topoisomerase 2-alpha (TOP2A, Homo sapiens, UniProt P11388)
UniProt P11388, sequence (whole entry, looked up): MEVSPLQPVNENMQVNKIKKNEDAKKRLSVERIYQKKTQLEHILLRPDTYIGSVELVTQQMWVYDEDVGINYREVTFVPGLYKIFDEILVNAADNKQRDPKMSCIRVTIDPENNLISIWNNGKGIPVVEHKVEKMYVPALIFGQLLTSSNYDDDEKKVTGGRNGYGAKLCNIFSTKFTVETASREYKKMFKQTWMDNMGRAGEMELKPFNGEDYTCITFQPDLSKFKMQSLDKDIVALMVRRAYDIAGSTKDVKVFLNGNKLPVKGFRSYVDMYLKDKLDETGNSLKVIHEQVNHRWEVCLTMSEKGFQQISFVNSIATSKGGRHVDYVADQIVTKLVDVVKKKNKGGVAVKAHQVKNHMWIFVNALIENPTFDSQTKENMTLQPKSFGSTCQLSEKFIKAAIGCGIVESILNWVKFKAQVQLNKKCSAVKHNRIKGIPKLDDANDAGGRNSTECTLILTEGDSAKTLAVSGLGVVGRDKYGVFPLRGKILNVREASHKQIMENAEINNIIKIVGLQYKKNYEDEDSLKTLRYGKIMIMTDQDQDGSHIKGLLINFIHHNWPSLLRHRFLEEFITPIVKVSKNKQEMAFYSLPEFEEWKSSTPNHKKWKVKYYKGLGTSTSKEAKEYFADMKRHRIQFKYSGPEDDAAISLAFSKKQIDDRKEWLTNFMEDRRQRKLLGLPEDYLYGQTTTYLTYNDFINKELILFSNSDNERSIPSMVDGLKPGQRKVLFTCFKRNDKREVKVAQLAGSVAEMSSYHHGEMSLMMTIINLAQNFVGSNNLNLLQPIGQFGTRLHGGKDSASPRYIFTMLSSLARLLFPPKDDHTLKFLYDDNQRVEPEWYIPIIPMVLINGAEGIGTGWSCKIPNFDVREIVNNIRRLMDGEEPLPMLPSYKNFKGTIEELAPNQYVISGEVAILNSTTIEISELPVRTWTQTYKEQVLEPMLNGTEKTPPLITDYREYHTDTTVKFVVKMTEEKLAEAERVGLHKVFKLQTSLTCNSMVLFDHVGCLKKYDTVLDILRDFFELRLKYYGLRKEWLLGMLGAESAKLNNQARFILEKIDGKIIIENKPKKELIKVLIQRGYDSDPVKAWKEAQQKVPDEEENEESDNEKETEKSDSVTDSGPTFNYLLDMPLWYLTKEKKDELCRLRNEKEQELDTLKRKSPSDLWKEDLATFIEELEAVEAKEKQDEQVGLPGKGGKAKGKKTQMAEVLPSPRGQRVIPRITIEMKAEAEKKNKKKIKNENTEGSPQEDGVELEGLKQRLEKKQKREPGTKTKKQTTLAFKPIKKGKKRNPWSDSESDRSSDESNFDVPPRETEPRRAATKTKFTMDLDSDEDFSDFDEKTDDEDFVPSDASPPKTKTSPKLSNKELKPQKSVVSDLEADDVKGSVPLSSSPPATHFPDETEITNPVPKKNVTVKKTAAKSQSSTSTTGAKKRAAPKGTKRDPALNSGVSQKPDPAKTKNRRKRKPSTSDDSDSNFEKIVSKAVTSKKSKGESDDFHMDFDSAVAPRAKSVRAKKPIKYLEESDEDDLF
Tumor necrosis factor receptor superfamily member 9/Nectin-4: Tumor necrosis factor receptor superfamily member 9/Nectin-4 (Homo sapiens, UniProt Q07011+Q96NY8)
UniProt Q07011, sequence (whole entry, looked up): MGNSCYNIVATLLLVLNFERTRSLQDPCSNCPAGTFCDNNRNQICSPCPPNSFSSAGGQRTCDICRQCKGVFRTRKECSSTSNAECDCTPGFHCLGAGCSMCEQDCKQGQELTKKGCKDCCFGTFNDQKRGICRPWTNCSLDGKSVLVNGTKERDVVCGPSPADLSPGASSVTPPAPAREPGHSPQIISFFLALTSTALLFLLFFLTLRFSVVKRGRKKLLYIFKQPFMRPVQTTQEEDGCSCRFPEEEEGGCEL
UniProt Q96NY8, sequence (whole entry, looked up): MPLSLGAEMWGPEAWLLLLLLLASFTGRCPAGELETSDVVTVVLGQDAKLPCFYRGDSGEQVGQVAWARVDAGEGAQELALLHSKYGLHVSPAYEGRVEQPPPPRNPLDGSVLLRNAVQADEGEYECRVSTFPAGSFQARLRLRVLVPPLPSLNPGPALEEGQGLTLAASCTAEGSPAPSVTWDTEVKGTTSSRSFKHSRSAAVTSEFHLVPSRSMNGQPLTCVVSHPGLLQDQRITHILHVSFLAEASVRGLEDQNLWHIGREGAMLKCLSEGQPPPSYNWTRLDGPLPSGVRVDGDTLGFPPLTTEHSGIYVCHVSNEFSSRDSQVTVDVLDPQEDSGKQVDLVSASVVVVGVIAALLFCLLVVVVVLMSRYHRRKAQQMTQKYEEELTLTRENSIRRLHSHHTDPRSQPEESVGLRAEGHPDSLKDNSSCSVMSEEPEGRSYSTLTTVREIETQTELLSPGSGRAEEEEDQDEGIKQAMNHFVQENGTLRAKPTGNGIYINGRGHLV
T1: RNA, 2'-deoxy at 37-40 (Fusobacterium nucleatum); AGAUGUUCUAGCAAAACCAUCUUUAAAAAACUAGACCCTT
T2: ssDNA, aptamer; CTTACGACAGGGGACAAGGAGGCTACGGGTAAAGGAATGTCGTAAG
T3: preQ1-II riboswitch RNA (Carnobacterium antarcticum); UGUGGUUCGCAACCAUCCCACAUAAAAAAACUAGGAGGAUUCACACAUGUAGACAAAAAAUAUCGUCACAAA
UniProt Q16774, sequence (whole entry, unmodified, looked up): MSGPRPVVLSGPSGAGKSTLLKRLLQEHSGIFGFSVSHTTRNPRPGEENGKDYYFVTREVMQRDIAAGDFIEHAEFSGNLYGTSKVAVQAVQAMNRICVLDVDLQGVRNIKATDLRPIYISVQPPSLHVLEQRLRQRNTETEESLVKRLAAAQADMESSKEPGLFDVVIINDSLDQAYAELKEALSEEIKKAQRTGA
UniProt P51575, sequence (whole entry, unmodified, looked up): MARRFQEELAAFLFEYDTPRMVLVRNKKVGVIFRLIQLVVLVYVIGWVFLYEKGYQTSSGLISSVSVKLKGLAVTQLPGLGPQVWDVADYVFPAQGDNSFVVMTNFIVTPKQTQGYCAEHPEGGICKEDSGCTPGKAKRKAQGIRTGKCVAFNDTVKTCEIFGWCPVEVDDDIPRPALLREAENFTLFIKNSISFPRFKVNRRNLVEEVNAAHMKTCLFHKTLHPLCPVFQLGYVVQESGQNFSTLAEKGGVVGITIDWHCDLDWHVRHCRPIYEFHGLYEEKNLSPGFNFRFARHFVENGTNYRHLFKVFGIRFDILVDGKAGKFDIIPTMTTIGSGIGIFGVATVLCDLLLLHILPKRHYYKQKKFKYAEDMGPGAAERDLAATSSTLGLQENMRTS
UniProt P48729, sequence (whole entry, looked up): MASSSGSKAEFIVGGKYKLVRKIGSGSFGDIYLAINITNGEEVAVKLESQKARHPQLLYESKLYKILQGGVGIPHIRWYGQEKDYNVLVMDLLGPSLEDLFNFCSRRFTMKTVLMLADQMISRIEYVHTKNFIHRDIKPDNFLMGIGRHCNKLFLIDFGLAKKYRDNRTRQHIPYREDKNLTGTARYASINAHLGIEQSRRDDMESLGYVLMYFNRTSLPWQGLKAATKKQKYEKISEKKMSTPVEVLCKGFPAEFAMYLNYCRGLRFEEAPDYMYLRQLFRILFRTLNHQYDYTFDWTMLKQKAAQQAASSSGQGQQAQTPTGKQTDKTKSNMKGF
UniProt Q9UBL9, sequence (whole entry, looked up): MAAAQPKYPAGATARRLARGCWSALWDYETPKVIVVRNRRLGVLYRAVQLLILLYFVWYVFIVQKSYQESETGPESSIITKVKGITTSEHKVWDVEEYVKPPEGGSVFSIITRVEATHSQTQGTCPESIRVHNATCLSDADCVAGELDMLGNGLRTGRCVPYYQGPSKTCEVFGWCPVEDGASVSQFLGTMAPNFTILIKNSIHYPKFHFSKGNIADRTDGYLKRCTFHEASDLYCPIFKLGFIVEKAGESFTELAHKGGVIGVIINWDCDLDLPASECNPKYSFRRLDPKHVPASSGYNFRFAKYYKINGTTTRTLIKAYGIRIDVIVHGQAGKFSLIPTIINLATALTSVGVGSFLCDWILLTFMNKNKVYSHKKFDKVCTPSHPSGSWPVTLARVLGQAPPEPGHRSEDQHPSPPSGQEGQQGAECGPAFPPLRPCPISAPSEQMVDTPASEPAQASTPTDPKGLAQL
UniProt P31645, sequence (whole entry, looked up): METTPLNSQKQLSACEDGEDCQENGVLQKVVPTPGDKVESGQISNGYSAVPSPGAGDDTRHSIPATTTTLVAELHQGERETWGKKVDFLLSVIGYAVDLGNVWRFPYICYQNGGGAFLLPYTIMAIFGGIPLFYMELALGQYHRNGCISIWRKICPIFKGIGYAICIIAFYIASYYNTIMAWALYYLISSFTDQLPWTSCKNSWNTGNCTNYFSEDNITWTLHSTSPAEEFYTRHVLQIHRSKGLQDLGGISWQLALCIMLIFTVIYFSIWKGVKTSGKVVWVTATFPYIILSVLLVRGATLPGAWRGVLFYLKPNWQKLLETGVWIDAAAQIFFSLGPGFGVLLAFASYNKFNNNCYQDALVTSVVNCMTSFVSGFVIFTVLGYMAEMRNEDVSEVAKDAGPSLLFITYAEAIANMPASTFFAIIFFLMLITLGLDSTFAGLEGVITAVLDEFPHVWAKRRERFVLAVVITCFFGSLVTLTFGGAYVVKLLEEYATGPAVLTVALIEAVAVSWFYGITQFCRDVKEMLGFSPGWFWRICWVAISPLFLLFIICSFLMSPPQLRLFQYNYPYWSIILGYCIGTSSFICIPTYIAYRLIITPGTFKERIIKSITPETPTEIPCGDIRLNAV
UniProt P02754, sequence (whole entry, looked up): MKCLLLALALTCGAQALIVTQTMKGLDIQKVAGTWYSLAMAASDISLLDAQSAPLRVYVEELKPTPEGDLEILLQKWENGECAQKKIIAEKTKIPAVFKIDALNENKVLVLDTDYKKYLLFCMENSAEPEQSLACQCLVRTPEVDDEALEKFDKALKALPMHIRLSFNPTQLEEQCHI

SMILES	target	test	system	setting	scale	endpoint	value
COc1cc2c(cc1OC)C(=O)C(CC1CCN(Cc3ccccc3)CC1)C2 (stereo not shown)	HTR2B	radioligand binding	–	concentration not given, together with: [3H]LSD	–	inhibition	67.6%
Nc1ccc(Cc2nnc(NS(=O)(=O)c3ccc(N)cc3)s2)cc1	Glutathione hydrolase 1 proenzyme, without transmembrane domain (Homo sapiens, UniProt P19440)	GSH hydrolysis, uncompetitive inhibitor	–	37 °C, binds gamma-glutamyl enzyme, together with: GSH 5-20 µM	–	Kii	102 ± 16 µM
COc1cc(-c2cncc3c2CN(C)Cc2cc(N4CCNCC4)ccc2-3)cc(OC)c1OC	WNK4 (Homo sapiens, UniProt Q96J92)	kinase activity	–	1 µM, human enzyme, together with: ATP 10 µM	relative to: DMSO control	remaining activity	123%
COc1cc(Nc2ncc3c(n2)-c2ccc(Cl)cc2C(c2c(F)cccc2OC)=NC3)ccc1C(=O)O	PRKX	kinase activity	–	1 µM	–	remaining activity	97%
N#C[C@@]12C[C@@H]1[C@@H](n1cnc3c(N)nc(Cl)nc31)[C@H](O)[C@@H]2O	HTR2B	radioligand binding	–	concentration not given, together with: [3H]LSD	–	binding affinity	inactive
CCCN(CCC)S(=O)(=O)c1ccc(-c2n[nH]c(=S)o2)cc1	P2X purinoceptor 2 (P2RX2, Homo sapiens, UniProt Q9UBL9)	calcium mobilization	MCF7 stably transfected	100 µM, together with: ATP 100 µM	–	fluorescence increase	92.6 ± 2.11%
Nc1ncnc2c1ncn2[C@@H]1O[C@H](COP(=O)(O)CP(=O)(O)OP(=O)(O)O)[C@@H](O)[C@H]1O	P2X purinoceptor 1 (P2RX1, Homo sapiens, UniProt P51575, L218T)	saturation binding	HEK293	79 nM	–	specific binding	4080 CCPM and 4090 CCPM
CC(C)=CCC/C(C)=C/C=C/C(C)=C/C=C/C(C)=C/C=C/C=C(C)/C=C/C=C(C)/C=C/C=C(\C)CCC=C(C)C	Beta-lactoglobulin (LGB, Bos taurus, UniProt P02754)	fluorescence quenching	–	298 K	–	Stern-Volmer quenching constant	6190 ± 2020 L/mol
O=[N+]([O-])c1cc(C(F)(F)F)ccc1NCc1ccco1	Endothelial PAS domain-containing protein 1, PAS-B domain (EPAS1, Homo sapiens, UniProt Q99814, N288A)	binding, ITC, reverse mode	–	–	–	ΔH	-30.3 ± 0.586 kJ/mol
Cc1nc(CSc2nc(SCc3ccc(C(C)C)cc3)nc(=O)[nH]2)cs1	TOP2A	DNA cleavage	–	31.25 µM	–	mean linear DNA	0%
Nc1ncnc2[nH]cnc12	T1, RNA, 2'-deoxy at 37-40 (Fusobacterium nucleatum)	MST	–	apparent	–	Kd	> 500 µM
Cc1cc(NC(=O)C=Cc2ccccc2)cc(-c2ccnc(N3CCC(O)CC3)c2)c1	Nuclear receptor subfamily 4 group A member 1 (NR4A1, Homo sapiens, UniProt P22736)	SPR	–	10.0 µM	–	binding response	81.9 RU
CC(=O)N[C@H](C(=O)N1C[C@H](O)C[C@H]1C(=O)NCc1ccc(-c2scnc2C)cc1)C(C)(C)SCCCCCCNC(=O)C[C@@H]1N=C(c2ccc(Cl)cc2)c2c(sc(C)c2C)-n2c(C)nnc21	BRD4/VHL, BD2; with elongins B/C (Homo sapiens, UniProt O60885+P40337)	ITC	–	25 °C, PROTAC:Brd4^BD2	relative to: Kd binary over Kd ternary	cooperativity	7
Nc1ncnc2c1ncn2[C@@H]1O[C@H](COP(=O)(O)OP(=O)(O)O)[C@@H](O)[C@H]1O	T2, ssDNA, aptamer	ITC	–	–	–	Kd	15.6 µM
CCCC(CCC)c1nc2c(Nc3ccc(C#CCCCCCCCCN)cc3)nc3ccccc3c2[nH]1	ADRA1A (Homo sapiens, UniProt P35348)	PDSP screening	–	–	–	off-target affinity	inactive
CCCCC[C@H](O)/C=C/[C@H]1[C@H](O)CC(=O)[C@@H]1C/C=C\CCCC(=O)O	PTGER1 (Homo sapiens, UniProt P34995, G92A)	IP1 accumulation, agonist	AD293	1 h, EP1 G92A mutant	–	Emax	109 ± 3.13%
O=C1CCC(N2Cc3cc(NC(=O)c4ccc(F)cc4)ccc3C2=O)C(=O)N1 (stereo not shown)	Cereblon/Casein kinase I alpha (CSNK1A1/CRBN, Homo sapiens, UniProt P48729+Q96SW2)	degrader, live-cell HiBiT kinetic	HEK293 LgBiT	10 µM	–	degradation rate constant	1.2 h⁻¹
O=c1nc(SCc2cc(F)cc(C(F)(F)F)c2)nc(SCc2csc3ccc(Cl)cc23)[nH]1	TOP2A	decatenation	–	0.49 µM, replicate 1	–	decatenated DNA	0%
Cc1cc(-c2cccc(-n3cc(COC(=O)[C@]4(C)C=C(C(=O)OC(C)(C)C)C(=O)CC4)nn3)c2)c(C)c2c1CNCC2	MAPK8 (Homo sapiens, UniProt P45983)	D-peptide binding, inhibitor, FP peptide displacement	–	3.125 µM	lower is stronger displacement	fraction bound	0.768
CCCC[C@@H]1NC(=O)[C@H](Cc2ccc(O)cc2)NC(=O)[C@@H]2CCCN2C(=O)[C@H](CC(=O)O)NC(=O)[C@H](C)NC(=O)[C@H](Cc2ccccc2)NC(=O)[C@@H]2CSCCC(=O)N3CN(CN(C3)C(=O)CCSC[C@@H](C(=O)N[C@@H](C)C(N)=O)NC1=O)C(=O)CCSC[C@H](NC(C)=O)C(=O)N[C@@H](CC(C)(C)C)C(=O)N1CCC[C@H]1C(=O)N[C@@H](CCC(=O)O)C(=O)N[C@H](CCCCNC(=O)CCc1cn(CCOCCOCCCOCCOCCOCCOCCOCCOCCOCCOCCNC(=O)CCOCC(COCCC(=O)NCCOCCOCCOCCOCCOCCOCCOCCOCCOCCOCCn3cc(CCC(=O)NCCCC[C@H]4NC(=O)[C@H](CCC(=O)O)NC(=O)[C@@H]5CCCN5C(=O)[C@H](CC(C)(C)C)NC(=O)[C@@H](NC(C)=O)CSCCC(=O)N5CN6CN(C5)C(=O)CCSC[C@H](NC(=O)[C@H](Cc5ccc(O)cc5)NC(=O)[C@@H]5CCCN5C4=O)C(=O)N[C@@H](Cc4ccccc4)C(=O)N[C@@H](C)C(=O)N[C@@H](CC(=O)O)C(=O)N4CCC[C@H]4C(=O)N[C@@H](Cc4ccc(O)cc4)C(=O)N[C@@H](CCCC)C(=O)N[C@H](C(=O)N[C@@H](C)C(N)=O)CSCCC6=O)nn3)(COCCC(=O)NCCOCCOCCOCCOCCOCCOCCOCCOCCOCCOCCn3cc(CCC(=O)NCCCC[C@H]4NC(=O)[C@H](CCC(=O)O)NC(=O)[C@@H]5CCCN5C(=O)[C@H](CC(C)(C)C)NC(=O)[C@@H](NC(C)=O)CSCCC(=O)N5CN6CN(C5)C(=O)CCSC[C@H](NC(=O)[C@H](Cc5ccc(O)cc5)NC(=O)[C@@H]5CCCN5C4=O)C(=O)N[C@@H](Cc4ccccc4)C(=O)N[C@@H](C)C(=O)N[C@@H](CC(=O)O)C(=O)N4CCC[C@H]4C(=O)N[C@@H](Cc4ccc(O)cc4)C(=O)N[C@@H](CCCC)C(=O)N[C@H](C(=O)N[C@@H](C)C(N)=O)CSCCC6=O)nn3)COCCC(=O)NCCOCCOCCOCCOCCOCCOCCOCCOCCOCCOCCn3cc(CCC(=O)NCCC(=O)N[C@H]4CSCCC(=O)N5CN6CN(C5)C(=O)CCSC[C@H](NC(=O)[C@@H](CC(=O)O)NC(=O)[C@H](Cc5cccc7ccccc57)NC(=O)[C@@H]5CCCN5C4=O)C(=O)N[C@@H](CCSC)C(=O)N[C@@H](CCCCNC(=N)N)C(=O)N[C@@H](CC(=O)O)C(=O)N[C@@H](Cc4c[nH]c5ccccc45)C(=O)N[C@@H](CO)C(=O)N[C@@H]([C@@H](C)O)C(=O)N4CCC[C@H]4C(=O)N4C[C@H](O)C[C@H]4C(=O)N[C@@H](Cc4c[nH]c5ccccc45)C(=O)N[C@H](C(N)=O)CSCCC6=O)nn3)nn1)C(=O)N1CCC[C@H]1C(=O)N[C@@H](Cc1ccc(O)cc1)C(=O)N2	Tumor necrosis factor receptor superfamily member 9/Nectin-4	reporter gene, agonist	HT-1376 coculture with reporter cells	–	relative to: background	Emax	51 fold
CC(C)(COP(=O)(O)OP(=O)(O)OC[C@H]1O[C@@H](n2cnc3c(N)ncnc32)[C@H](O)[C@@H]1OP(=O)(O)O)[C@@H](O)C(=O)NCCC(=O)NCCSC(=O)CCCc1ccccc1	ACADM (Homo sapiens, UniProt P11310)	charge-transfer complex formation, anaerobic spectrophotometric titration	–	–	–	apparent Kd	2.16 µM
C[C@H]1O[C@@H](O[C@H]2CC[C@@]3(C)[C@@H](CC[C@]4(C)[C@@H]3C=C[C@]35OC[C@@]6(CCC(C)(C)C[C@H]63)[C@@H](O)C[C@]54C)[C@]2(C)CO)[C@H](O)[C@@H](O[C@@H]2O[C@H](CO)[C@@H](O)[C@H](O)[C@H]2O)[C@H]1O	SIRT1 (Homo sapiens, UniProt Q96EB6)	binding, microscale thermophoresis	–	185 nM	–	MST normalised fluorescence	885 a.u.
Nc1nnc(-c2cccc(Cl)c2Cl)c(N)n1	SCN5A (Homo sapiens, UniProt Q14524)	sodium current	–	25 µM, -120 mV	–	fast tau off	58%
NCc1c[nH]c2nc(N)[nH]c(=O)c12	T3, preQ1-II riboswitch RNA (Carnobacterium antarcticum)	ribosome-assembly cleavage, RelE cleavage assay	–	apparent, together with: preQ1	–	EC50	15 µM
O=C(NO)c1ccc(CN2CCCCc3ccccc32)c(F)c1	DRD4 (Homo sapiens, UniProt P21917)	radioligand binding, radioligand displacement	–	10 µM, mean of replicates	–	inhibition	-1.32%
Nc1nc2c(ncn2[C@@H]2O[C@H](COP(=O)(O)O)[C@@H](O)[C@H]2O)c(=O)[nH]1	GUK1 (Homo sapiens, UniProt Q16774, Y53A)	enzyme activity, NADH-coupled	–	125 µM	–	reaction rate	1.25 s⁻¹ and 1.08 s⁻¹ and 0.678 s⁻¹
N#Cc1ccc2[nH]cc(CCCCN3CCN(c4ccc5oc(C(N)=O)cc5c4)CC3)c2c1	SLC6A4 (Homo sapiens, UniProt P31645)	serotonin uptake, inhibitor	COS-7 expressing SLC6A4	60 min preincubation, together with: [3H]5-HT	–	Hill slope	-1.66
CCCC[C@@H]1NC(=O)[C@H](Cc2ccc(O)cc2)NC(=O)[C@@H]2CCCN2C(=O)[C@H](CC(=O)O)NC(=O)[C@H](C)NC(=O)[C@H](Cc2ccccc2)NC(=O)[C@@H]2CSCCC(=O)N3CN(CN(C3)C(=O)CCSC[C@@H](C(=O)N[C@@H](C)C(N)=O)NC1=O)C(=O)CCSC[C@H](NC(C)=O)C(=O)N[C@@H](CC(C)(C)C)C(=O)N1CCC[C@H]1C(=O)N[C@@H](CCC(=O)O)C(=O)N[C@H](CCCCNC(=O)CCc1cn(CCOCCOCCOCCOCCOCCOCCOCCOCCOCCOCCNC(=O)CCOCCN(CCOCCC(=O)NCCOCCOCCOCCOCCOCCOCCOCCOCCOCCOCCn3cc(CCC(=O)NCCCC[C@H]4NC(=O)[C@H](CCC(=O)O)NC(=O)[C@@H]5CCCN5C(=O)[C@H](CC(C)(C)C)NC(=O)[C@@H](NC(C)=O)CSCCC(=O)N5CN6CN(C5)C(=O)CCSC[C@H](NC(=O)[C@H](Cc5ccc(O)cc5)NC(=O)[C@@H]5CCCN5C4=O)C(=O)N[C@@H](Cc4ccccc4)C(=O)N[C@@H](C)C(=O)N[C@@H](CC(=O)O)C(=O)N4CCC[C@H]4C(=O)N[C@@H](Cc4ccc(O)cc4)C(=O)N[C@@H](CCCC)C(=O)N[C@H](C(=O)N[C@@H](C)C(N)=O)CSCCC6=O)nn3)CCOCCC(=O)NCCOCCOCCOCCOCCOCCOCCOCCOCCOCCOCCn3cc(CCC(=O)N[C@H]4CSCCC(=O)N5CN6CN(C5)C(=O)CCSC[C@H](NC(=O)[C@@H](CC(=O)O)NC(=O)[C@H](Cc5cccc7ccccc57)NC(=O)[C@@H]5CCCN5C4=O)C(=O)N[C@@H](CCSC)C(=O)N[C@@H](CCCCNC(=N)N)C(=O)N[C@@H](CC(=O)O)C(=O)N[C@@H](Cc4c[nH]c5ccccc45)C(=O)N[C@@H](CO)C(=O)N[C@@H]([C@@H](C)O)C(=O)N4CCC[C@H]4C(=O)N4C[C@H](O)C[C@H]4C(=O)N[C@@H](Cc4c[nH]c5ccccc45)C(=O)N[C@H](C(N)=O)CSCCC6=O)nn3)nn1)C(=O)N1CCC[C@H]1C(=O)N[C@@H](Cc1ccc(O)cc1)C(=O)N2	Tumor necrosis factor receptor superfamily member 9/Nectin-4	reporter gene, agonist	HT-1376 coculture with reporter cells	–	relative to: background	Emax	40 fold

For quick reference, copied from above:
SMILES	target	test	system	setting	scale	endpoint	value
NCc1c[nH]c2nc(N)[nH]c(=O)c12	T3, preQ1-II riboswitch RNA (Carnobacterium antarcticum)	ribosome-assembly cleavage, RelE cleavage assay	–	apparent, together with: preQ1	–	EC50	15 µM
O=C(NO)c1ccc(CN2CCCCc3ccccc32)c(F)c1	DRD4 (Homo sapiens, UniProt P21917)	radioligand binding, radioligand displacement	–	10 µM, mean of replicates	–	inhibition	-1.32%
